Earlier results as cited in several papers.
Lines come from different studies, so protocols differ. In brackets after ≈: the same amount, converted by molar mass.

Cc1[nH]c(C)c(-c2ccc(OCCSc3ccncc3)cc2)c(=O)c1Br  IC50 (Plasmodium falciparum; whole cell extended time; 3D7; 72 h): 0.39 µM
CC1(C)S[C@@H]2[C@H](NC(=O)[C@H](N)c3ccccc3)C(=O)N2[C@H]1C(=O)O  MIC (Enterobacter cloacae; clinical isolate RKI-No_210/15): > 16 mg/L
FC(F)(F)c1ccc(Oc2ccc(-c3noc(-c4ccc5[nH]ccc5c4)n3)cc2)cc1  MIC (Klebsiella pneumoniae; ATCC 700603): > 128 mg/L
Cc1cnc(N2CC3(CCOCC3)C2)c(C(=O)Nc2ccc(C(=O)N3CCc4cc(C(=O)Nc5c(C)cccc5F)sc4-c4ccccc43)cc2)c1  ID50 (respiratory syncytial virus; viral replication, PCR; cotton rat, lung homogenate): 0.0666 mg/kg
O=C(C1CCCCC1)N1CC(=O)N2CCc3ccccc3C2C1 (stereo not shown)  antischistosomal activity (Schistosoma mansoni; juvenile, mouse; dose not given, 37, 38): inactive
O=[N+]([O-])c1c[nH]c(-c2nc(-c3ccc(OC4CCCC4)cc3)no2)n1  MIC90 (Clostridioides difficile; vegetative cells): 1 mg/L (≈ 2.93 µM)
CCC(=O)O[C@]1(C(=O)SCF)[C@H](C)C[C@H]2[C@@H]3C[C@H](F)C4=CC(=O)C=C[C@]4(C)[C@@]3(F)[C@@H](O)C[C@@]21C  receptor occupancy (Glucocorticoid receptor (Nr3c1, Rattus norvegicus, UniProt P06536); rat, spleen; intravenous, 90 nmol/kg, 0.4667 (unit not given)): 84.5%
C[C@H]1COCCN1c1nc(-c2cnc(N)cc2C(F)F)nc(N2CCOCC2)n1  GI50 (T98G): 0.35 µM
COCCN(C)c1ccc(C(=O)Nc2ccccc2)cc1NS(=O)(=O)Cc1ccccc1  IC50 (Plasmodium falciparum; whole cell extended time; 3D7; 72 h): 0.57 µM
Cc1ccc(Oc2ccc(NC(=O)CNc3ccccc3N3CCCC3=O)cc2)cc1  EC50 (Plasmodium falciparum; parasite growth; 3D7 population E L562R): 6.05 µM
Nc1cc(C(F)(F)F)c(-c2nc(N3CCOCC3)nc(N3CCOCC3)n2)cn1  remaining activity (Serine/threonine-protein kinase 24 (STK24, Homo sapiens, UniProt Q9Y6E0); enzyme activity; 10 µM; relative to: untreated): 92%
Cc1[nH]c(C)c(-c2ccc(OCCCCSc3ccncc3)cc2)c(=O)c1Br  IC50 (Plasmodium falciparum; whole cell extended time; 3D7; 72 h): 0.25 µM
CNC(C)C1CCC(N)C(OC2C(N)CC(N)C(OC3OCC(C)(O)C(NC)C3O)C2O)O1 (stereo not shown)  MIC (Enterobacter cloacae; clinical isolate RKI-No_546/13): 4 mg/L (≈ 8.38 µM)
CCOC(=O)c1cn(CC)c2cc(OCc3ccccc3)ccc2c1=O  IC50 (Plasmodium falciparum; whole cell extended time; 3D7; 72 h): 0.95 µM
Cl.N=C(CC(O)c1cc2c(F)cc(F)cc2c2cc(C(F)(F)F)ccc12)Nc1ccc(F)c(F)c1 (stereo not shown)  cure rate (Plasmodium berghei; ANKA, mouse; oral, 50 mg/kg, four doses): 100%
COc1ccccc1Oc1cccc(CN2CCC(NC(=O)C(CCN3CCCC3)c3ccccc3)CC2)c1 (stereo not shown)  EC50 (human CCR8 S110H mutant (TM3); IP accumulation, agonist): > 10 µM
O=c1c(O)c(-c2ccc(O)c(O)c2)oc2cc(O)cc(O)c12  IC50 (CMV; viral replication): 19.6 µM
COc1ccccc1Oc1cccc(CN2CCC(NC(=O)C3CC(=O)Nc4ccccc43)CC2)c1 (stereo not shown)  EC50 (human CCR8 S289A mutant (TM7); IP accumulation, agonist): 0.036 µM
CNC(=O)[C@@]12C[C@@H]1[C@@H](n1cnc3c(NCc4cccc(Cl)c4)nc(C#Cc4ccc(F)c(F)c4)nc31)[C@H](O)[C@@H]2O  Ki (β3; radioligand binding): 1 to 10 µM

Some of these lines once more:
O=C(C1CCCCC1)N1CC(=O)N2CCc3ccccc3C2C1 (stereo not shown)  antischistosomal activity (Schistosoma mansoni; juvenile, mouse; dose not given, 37, 38): inactive
